Results of several laboratories.
Compare with care: the assays were run in different laboratories. “And” joins repeats or separate records; there may be more than shown.

| Structure (SMILES) | target | assay | system | conditions | scale | quantity | result |
| --- | --- | --- | --- | --- | --- | --- | --- |
| Cc1cc(C(=O)Nc2nc3cccc(C)c3n2[C@H]2CCCCN(C(=O)/C=C/CN(C)C)C2)ccn1 | CDC2-like kinase 1 (Trypanosoma brucei brucei, UniProt Q382U0) | ADP-Glo | – | 0.3125 µM | – | kinase activity | 24.8% |
| CC(/C=C/C(=O)NO)=C\[C@@H](C)C(=O)c1ccc(N(C)C)cc1 | HDAC8 (Homo sapiens, UniProt Q9BY41) | ITC | Tris buffer | concentration not given, pH 7.5 | – | binding stoichiometry | 0.8 |
| CCCCCCCCCCCCC/C=C/C=O | TBC1 domain family member 13 (TBC1D13, Homo sapiens, UniProt Q9NVG8) | competitive isoTOP-ABPP | Ramos soluble proteome | 100 µM, 60 min, together with: iodoacetamide probe | relative to: DMSO over compound-treated, higher = stronger cysteine blockade | isoTOP-ABPP competition ratio | 1 |
| CCC1(CC)C(=O)N(c2cc(O)cc(C(=O)N3CCN(Cc4ccc(Br)cc4)CC3)c2)C1=O | Dipeptidyl peptidase 8 (Homo sapiens, UniProt Q6V1X1) | inhibitor | – | together with: GP-AMC substrate | relative to: Ki' DPP9 over Ki' DPP8 | selectivity ratio | 11 |
| O=c1c2sccc2n(CC2COc3ccccc3O2)c(=O)n1O (centres unmarked) | Flap endonuclease 1 (Homo sapiens, UniProt P39748) | binding, Mg2+ complex, surface plasmon resonance | – | pH 7.4, together with: 50 mM MgCl2 | – | koff | 0.00554 s⁻¹ |
| CN(C(=O)[C@@H]1CSCC(=O)N[C@@H](Cc2ccccc2)C(=O)N[C@@H](CO)C(=O)N[C@@H](Cc2ccccc2)C(=O)N[C@@H](Cc2ccc(O)cc2)C(=O)N[C@@H](Cc2ccc(O)cc2)C(=O)N[C@@H](Cc2c[nH]cn2)C(=O)N[C@@H](Cc2c[nH]c3ccccc23)C(=O)N1)[C@@H](Cc1ccccc1)C(N)=O | STING1 (Homo sapiens, UniProt Q86WV6, H232R) | thermal stability, DSF | – | 50 µM | – | ΔTm | 8.66 °C |
| CC(=O)N1c2ccc(-c3ccc(CNC(=O)c4cn5cc(-c6cnc(N)nc6)nc(N6CCOCC6)c5n4)cc3)cc2CC[C@@H]1C | Bromodomain-containing protein 3, BD1 (BRD3, Homo sapiens, UniProt Q15059) | binding, competition with immobilised ligand | – | 10 µM | – | remaining binding | 0.3% |
| C[C@@H]1C[C@H](Nc2ccccc2)c2cc(F)ccc2N1C(=O)c1ccc(Cl)c(Cl)c1 | Ecdysone receptor (Aedes albopictus, UniProt Q9U3Y4) | ligand binding, inhibitor | intact cells | together with: [3H]ponasterone A | direction not given | pIC50 Z-score | -0.09 |
| O=[N+]([O-])c1cc(Br)cc([N+](=O)[O-])c1NS(=O)(=O)c1ccc(Br)cc1 | PYL10, with HAB1 (Arabidopsis thaliana, UniProt Q8H1R0) | antagonist | – | 160 µM, together with: ABA 5 µM | higher = more HAB1 activity | HAB1 phosphatase activity | 0.103 a.u. and 0.104 a.u. and 0.101 a.u. |
| COC(=O)[C@]1(C)C=C(C(=O)Nc2cccc(C(=O)Nc3ccc(Nc4nccc(-c5cccnc5)n4)c(C)c3)c2)C(=O)CC1 | MAPK8 (Homo sapiens, UniProt P45983, C116S) | binding, SPR | – | 100, 300, 1000 nM, 1:1 binding model | – | kon | 290000 M⁻¹ s⁻¹ |
| Cc1cc(Cl)cc(-c2ccnc3cc(CN4C(=O)C5C(C4=O)C5(C)C)sc23)c1C[C@@H]1CNCCO1 (some centres unmarked) | USP7 (Homo sapiens, UniProt Q93009, V517F) | enzyme activity, inhibitor, Ub-AMC | – | – | relative to: V517F over wild type | IC50 ratio | 2250 |
